Results collected from several papers.
Each numbered part is a random draw from the data of one study; scales do not carry over between parts. “And” joins repeats or separate records; there may be more than shown.
UniProt Q08345, sequence (whole entry, looked up): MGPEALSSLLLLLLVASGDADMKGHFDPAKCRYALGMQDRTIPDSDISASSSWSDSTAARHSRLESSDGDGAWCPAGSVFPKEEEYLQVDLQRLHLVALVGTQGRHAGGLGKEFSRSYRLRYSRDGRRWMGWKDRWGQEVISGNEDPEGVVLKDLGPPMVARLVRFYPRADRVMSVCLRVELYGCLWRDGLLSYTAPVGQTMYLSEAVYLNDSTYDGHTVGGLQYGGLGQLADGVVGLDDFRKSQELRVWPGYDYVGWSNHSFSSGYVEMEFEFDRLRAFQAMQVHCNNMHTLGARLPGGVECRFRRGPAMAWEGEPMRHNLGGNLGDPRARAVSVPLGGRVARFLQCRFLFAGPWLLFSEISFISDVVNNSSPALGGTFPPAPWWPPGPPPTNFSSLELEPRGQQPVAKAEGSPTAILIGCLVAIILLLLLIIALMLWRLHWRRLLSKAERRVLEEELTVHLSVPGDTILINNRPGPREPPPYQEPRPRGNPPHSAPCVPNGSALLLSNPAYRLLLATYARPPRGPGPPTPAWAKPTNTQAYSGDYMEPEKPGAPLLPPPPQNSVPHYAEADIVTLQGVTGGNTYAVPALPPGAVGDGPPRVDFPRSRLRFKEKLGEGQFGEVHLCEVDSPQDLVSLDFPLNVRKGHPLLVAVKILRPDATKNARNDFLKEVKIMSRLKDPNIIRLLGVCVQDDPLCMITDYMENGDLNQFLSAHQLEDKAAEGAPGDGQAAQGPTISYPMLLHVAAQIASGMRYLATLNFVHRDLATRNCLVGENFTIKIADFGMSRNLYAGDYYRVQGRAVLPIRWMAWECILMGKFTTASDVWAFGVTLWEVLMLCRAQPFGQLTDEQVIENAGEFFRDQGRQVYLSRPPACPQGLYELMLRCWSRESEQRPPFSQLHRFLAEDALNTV
UniProt Q5S007, sequence (whole entry, looked up): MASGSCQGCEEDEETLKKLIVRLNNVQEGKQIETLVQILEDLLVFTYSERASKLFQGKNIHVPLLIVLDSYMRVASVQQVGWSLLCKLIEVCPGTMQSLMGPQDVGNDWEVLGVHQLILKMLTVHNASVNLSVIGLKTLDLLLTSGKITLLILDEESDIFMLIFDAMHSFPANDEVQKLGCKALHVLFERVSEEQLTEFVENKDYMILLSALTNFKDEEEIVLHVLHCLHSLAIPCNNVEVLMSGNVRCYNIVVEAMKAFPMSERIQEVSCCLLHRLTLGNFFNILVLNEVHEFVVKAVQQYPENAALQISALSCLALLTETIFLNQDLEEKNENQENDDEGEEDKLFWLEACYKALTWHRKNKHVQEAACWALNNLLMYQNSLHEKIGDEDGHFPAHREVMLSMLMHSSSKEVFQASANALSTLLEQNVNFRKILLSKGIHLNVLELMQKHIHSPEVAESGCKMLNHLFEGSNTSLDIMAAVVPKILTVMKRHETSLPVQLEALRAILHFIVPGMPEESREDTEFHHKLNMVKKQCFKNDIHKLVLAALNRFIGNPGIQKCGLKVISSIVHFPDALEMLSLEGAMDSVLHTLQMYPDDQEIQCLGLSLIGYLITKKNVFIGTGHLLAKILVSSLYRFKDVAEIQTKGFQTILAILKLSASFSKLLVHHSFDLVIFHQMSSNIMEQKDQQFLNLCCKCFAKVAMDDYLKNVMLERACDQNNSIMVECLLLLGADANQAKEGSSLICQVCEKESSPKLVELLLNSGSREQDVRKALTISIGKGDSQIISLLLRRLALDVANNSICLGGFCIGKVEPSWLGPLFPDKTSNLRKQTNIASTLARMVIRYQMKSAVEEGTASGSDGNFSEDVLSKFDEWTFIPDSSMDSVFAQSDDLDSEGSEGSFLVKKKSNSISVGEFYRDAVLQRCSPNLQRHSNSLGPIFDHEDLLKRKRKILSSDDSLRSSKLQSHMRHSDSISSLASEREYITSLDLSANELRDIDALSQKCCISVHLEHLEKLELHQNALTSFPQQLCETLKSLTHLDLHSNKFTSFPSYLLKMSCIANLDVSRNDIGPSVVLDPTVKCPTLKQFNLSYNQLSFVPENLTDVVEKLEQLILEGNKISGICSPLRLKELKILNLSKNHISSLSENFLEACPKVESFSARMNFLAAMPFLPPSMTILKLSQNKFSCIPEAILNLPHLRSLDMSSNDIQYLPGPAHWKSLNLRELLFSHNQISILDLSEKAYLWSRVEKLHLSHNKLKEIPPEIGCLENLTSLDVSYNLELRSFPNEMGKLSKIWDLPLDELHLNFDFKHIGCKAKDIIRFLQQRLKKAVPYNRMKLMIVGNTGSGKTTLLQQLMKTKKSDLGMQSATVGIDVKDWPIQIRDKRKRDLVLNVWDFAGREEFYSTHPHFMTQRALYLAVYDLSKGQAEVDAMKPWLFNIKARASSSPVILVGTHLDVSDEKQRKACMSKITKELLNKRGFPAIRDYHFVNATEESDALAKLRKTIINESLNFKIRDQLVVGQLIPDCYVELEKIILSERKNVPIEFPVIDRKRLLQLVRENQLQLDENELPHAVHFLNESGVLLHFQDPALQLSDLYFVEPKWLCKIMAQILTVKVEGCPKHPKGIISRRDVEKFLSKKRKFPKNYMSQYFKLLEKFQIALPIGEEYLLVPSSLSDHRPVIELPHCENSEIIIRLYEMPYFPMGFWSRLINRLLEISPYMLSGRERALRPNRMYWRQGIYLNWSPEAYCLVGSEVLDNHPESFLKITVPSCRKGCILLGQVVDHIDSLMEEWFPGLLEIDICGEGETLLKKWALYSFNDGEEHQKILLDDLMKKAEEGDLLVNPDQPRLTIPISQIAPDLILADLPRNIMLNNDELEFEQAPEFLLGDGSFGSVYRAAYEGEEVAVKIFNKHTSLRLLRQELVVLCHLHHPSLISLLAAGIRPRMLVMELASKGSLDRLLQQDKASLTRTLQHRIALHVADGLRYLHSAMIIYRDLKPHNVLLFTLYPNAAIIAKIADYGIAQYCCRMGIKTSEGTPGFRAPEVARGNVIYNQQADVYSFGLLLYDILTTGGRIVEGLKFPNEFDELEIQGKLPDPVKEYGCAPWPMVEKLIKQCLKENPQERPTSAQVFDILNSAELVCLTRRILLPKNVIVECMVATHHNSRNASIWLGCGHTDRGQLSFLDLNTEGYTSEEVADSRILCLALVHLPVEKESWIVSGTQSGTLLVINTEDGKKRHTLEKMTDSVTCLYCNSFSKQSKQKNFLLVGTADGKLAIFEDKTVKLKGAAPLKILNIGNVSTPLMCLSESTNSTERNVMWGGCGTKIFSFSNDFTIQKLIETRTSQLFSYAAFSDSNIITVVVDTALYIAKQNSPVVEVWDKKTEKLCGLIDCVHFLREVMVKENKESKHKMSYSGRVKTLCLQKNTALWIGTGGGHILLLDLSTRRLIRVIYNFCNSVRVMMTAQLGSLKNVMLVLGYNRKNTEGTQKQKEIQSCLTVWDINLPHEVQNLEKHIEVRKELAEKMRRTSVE
UniProt Q9UQ88, sequence (whole entry, looked up): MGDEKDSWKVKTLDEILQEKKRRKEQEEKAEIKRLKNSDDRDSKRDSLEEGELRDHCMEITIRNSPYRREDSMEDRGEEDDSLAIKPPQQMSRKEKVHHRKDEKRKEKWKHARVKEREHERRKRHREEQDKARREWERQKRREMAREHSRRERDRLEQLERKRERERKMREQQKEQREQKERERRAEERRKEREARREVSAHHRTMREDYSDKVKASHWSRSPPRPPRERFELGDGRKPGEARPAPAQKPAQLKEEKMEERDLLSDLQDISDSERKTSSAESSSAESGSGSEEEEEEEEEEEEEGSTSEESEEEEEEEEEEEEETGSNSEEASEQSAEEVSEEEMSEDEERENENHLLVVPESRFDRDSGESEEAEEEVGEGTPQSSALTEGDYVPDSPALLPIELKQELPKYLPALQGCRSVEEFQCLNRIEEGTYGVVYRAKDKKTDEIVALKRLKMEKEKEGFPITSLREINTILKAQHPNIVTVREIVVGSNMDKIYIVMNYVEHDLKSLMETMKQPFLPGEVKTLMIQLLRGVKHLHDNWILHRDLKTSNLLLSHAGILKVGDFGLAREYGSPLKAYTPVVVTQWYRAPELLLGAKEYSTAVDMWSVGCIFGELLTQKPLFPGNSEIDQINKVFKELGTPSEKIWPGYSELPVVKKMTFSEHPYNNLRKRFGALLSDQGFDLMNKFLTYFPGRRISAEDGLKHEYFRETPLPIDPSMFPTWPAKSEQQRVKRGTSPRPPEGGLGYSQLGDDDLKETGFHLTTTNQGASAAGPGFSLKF
UniProt Q14012, sequence (whole entry, looked up): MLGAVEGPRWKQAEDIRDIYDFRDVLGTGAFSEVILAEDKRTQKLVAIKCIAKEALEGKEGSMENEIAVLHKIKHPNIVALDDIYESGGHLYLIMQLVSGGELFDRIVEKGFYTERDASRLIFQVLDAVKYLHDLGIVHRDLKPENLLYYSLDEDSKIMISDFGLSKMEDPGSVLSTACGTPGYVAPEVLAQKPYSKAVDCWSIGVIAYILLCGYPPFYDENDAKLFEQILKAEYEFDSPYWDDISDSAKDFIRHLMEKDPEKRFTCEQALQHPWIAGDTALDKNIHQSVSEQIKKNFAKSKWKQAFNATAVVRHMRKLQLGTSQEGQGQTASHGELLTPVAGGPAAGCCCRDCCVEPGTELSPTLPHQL

Study 1
Target: Calcium/calmodulin-dependent protein kinase type II subunit alpha (CAMK2A, Homo sapiens, UniProt Q9UQM7)
UniProt Q9UQM7, sequence (whole entry, looked up): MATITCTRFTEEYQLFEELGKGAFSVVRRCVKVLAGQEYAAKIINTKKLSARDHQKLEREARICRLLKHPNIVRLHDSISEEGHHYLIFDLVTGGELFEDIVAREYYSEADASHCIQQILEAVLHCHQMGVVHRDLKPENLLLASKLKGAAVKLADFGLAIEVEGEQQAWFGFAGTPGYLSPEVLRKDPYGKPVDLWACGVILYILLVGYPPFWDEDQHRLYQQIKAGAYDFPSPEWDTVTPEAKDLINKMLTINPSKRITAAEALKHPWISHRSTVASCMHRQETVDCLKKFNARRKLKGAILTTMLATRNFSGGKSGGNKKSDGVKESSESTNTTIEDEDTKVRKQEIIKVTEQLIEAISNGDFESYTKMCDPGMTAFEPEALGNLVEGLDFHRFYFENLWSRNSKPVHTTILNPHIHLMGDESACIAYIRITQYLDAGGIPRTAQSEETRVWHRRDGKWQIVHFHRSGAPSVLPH
Read-out: enzyme activity
Mode: inhibitor
Tested at: 10 µM
For O=C(O)CNCC(=O)O, the inhibition was 2%.
CC(=O)NCCCCNCCCN gave an inhibition of -94%.
For Nc1nc2c([nH]c(=O)n2[C@H]2C[C@H](O)[C@@H](CO)O2)c(=O)[nH]1, the inhibition was -26%.
For Nc1nc(=S)c2[nH]cnc2[nH]1, the inhibition was -3%.
CCN(CC)CCNC(=O)c1ccc(NC(C)=O)cc1 gave an inhibition of 3%.
With CCn1cc(C(=O)O)c(=O)c2ccc(C)nc21 the inhibition was -2%.
With C=C1CC[C@H]2O[C@]2(C)CC[C@@H]2[C@@H]1CC2(C)C the inhibition was -2%.
C[C@@H](O)[C@@H]1NC(=O)[C@H](CCCCN)NC(=O)[C@@H](Cc2c[nH]c3ccccc23)NC(=O)[C@H](Cc2ccc(O)cc2)NC(=O)[C@@H](NC(=O)[C@@H](Cc2ccccc2)NC(=O)CN2CCN(CC(=O)O)CCN(CC(=O)O)CCN(CC(=O)O)CC2)CSSC[C@@H](C(=O)N[C@H](CO)[C@@H](C)O)NC1=O gave an inhibition of -9%.

Study 2
Structure (SMILES): O=C(O)[C@H]1[C@H](Cn2nnc3ccccc3c2=O)CC[C@@H]1C(=O)c1ccc(OCCC2CCOCC2)cc1
Tested at: 1 µM
The remaining binding was 100% (PIK3CA (Homo sapiens, UniProt P42336, C420R); cell-free assay, competition with immobilised ligand).
The remaining binding was 100% (DDR1 (Homo sapiens, UniProt Q08345); cell-free assay, competition with immobilised ligand).
The remaining binding was 92% (CDK11A (Homo sapiens, UniProt Q9UQ88); binding, competition with immobilised ligand).
Cyclin-dependent kinase 4, with cyclin D1 (CDK4, Homo sapiens, UniProt P11802); cell-free assay, competition with immobilised ligand — remaining binding: 89%.
It gave 100% for remaining binding (TNK1 (Homo sapiens, UniProt Q13470); cell-free assay, competition with immobilised ligand).
For CAMK1 (Homo sapiens, UniProt Q14012); cell-free assay, competition with immobilised ligand: remaining binding read 100%.
For LRRK2 (Homo sapiens, UniProt Q5S007); cell-free assay, competition with immobilised ligand: remaining binding read 90%.
EPHB6 (Homo sapiens, UniProt O15197); cell-free assay, competition with immobilised ligand — remaining binding: 89%.
The remaining binding was 85% (MAP3K14 (Homo sapiens, UniProt Q99558); cell-free assay, competition with immobilised ligand).
For RAF1 (Homo sapiens, UniProt P04049); cell-free assay, competition with immobilised ligand: remaining binding read 91%.
It gave 100% for remaining binding (GAK (Homo sapiens, UniProt O14976); cell-free assay, competition with immobilised ligand).
It gave 92% for remaining binding (LYN (Homo sapiens, UniProt P07948); cell-free assay, competition with immobilised ligand).
DCLK1 (Homo sapiens, UniProt O15075); cell-free assay, competition with immobilised ligand — remaining binding: 73%.
The remaining binding was 100% (TGFBR2 (Homo sapiens, UniProt P37173); cell-free assay, competition with immobilised ligand).
The remaining binding was 78% (AAK1 (Homo sapiens, UniProt Q2M2I8); binding).
FLT3 (Homo sapiens, UniProt P36888, F691L/ITD); cell-free assay, competition with immobilised ligand — remaining binding: 93%.
The remaining binding was 96% (EPHB4 (Homo sapiens, UniProt P54760); cell-free assay, competition with immobilised ligand).

Study 3
Cell line: mouse MPNST tumor cells
Method: high-content nuclear imaging
Measured: cell number
Tested at: 10 µM
Time: 12 h
Setting: mean of 2 replicates
Baseline: plate mean
Reading: higher = more cells
With CC1=C(C(=O)Nc2cc3cn[nH]c3cc2F)C(c2ccc(C(F)(F)F)cc2)CC(=O)N1 (stereo not drawn) the nuclei count was 1.01 z-score.
For Nc1ccn([C@H]2CC[C@@H](CO)O2)c(=O)n1, the nuclei count was 0.958 z-score and 0.302 z-score.
CS(=O)(=O)c1ccc(C2=C(c3ccccc3)C(=O)OC2)cc1 has a nuclei count of 0.638 z-score.
For CCCCCCCN(CC)CCCC(O)c1ccc(NS(C)(=O)=O)cc1 (stereo not drawn), the nuclei count was 1.32 z-score and 2.24 z-score and 2.32 z-score.
For O=C(O)Cc1ccccc1Nc1c(Cl)cccc1Cl, the nuclei count was 1.35 z-score.
With CC(=O)NC1C(OC(C)C)OC(COC(C)=O)C(OC(C)=O)C1OC(C)=O (stereo not drawn) the nuclei count was 0.198 z-score.

Study 4
Read-out: AlphaScreen signal
Method: AlphaScreen counter screen
Sample: His6 peptide without bromodomain
Tested at: 50 µM
Setting: assay interference check
COc1cccc(-c2nc(NCCCN(C)C)c3ccccc3n2)c1O has an inhibition of 51.8%.
The inhibition of COc1ccc(Nc2nccc(-c3ccc(C#N)cc3)n2)cc1 is reported as 21.1%.
Cn1c(Nc2ccc(C(F)(F)F)cc2)nc2cc(Oc3ccnc(-c4ncc(C(F)(F)F)[nH]4)c3)ccc21 has an inhibition of 32.2%.
COc1ccc(-c2[nH]c3ncccc3c2CN2CCOCC2)cc1 gave an inhibition of 11.3%.
For Nc1nc(Nc2ccc(F)cc2)sc1C(=O)c1ccc(F)cc1, the inhibition was 42.3%.

Repeated from above (study 1):
For Nc1nc2c([nH]c(=O)n2[C@H]2C[C@H](O)[C@@H](CO)O2)c(=O)[nH]1, the inhibition was -26%.
C[C@@H](O)[C@@H]1NC(=O)[C@H](CCCCN)NC(=O)[C@@H](Cc2c[nH]c3ccccc23)NC(=O)[C@H](Cc2ccc(O)cc2)NC(=O)[C@@H](NC(=O)[C@@H](Cc2ccccc2)NC(=O)CN2CCN(CC(=O)O)CCN(CC(=O)O)CCN(CC(=O)O)CC2)CSSC[C@@H](C(=O)N[C@H](CO)[C@@H](C)O)NC1=O gave an inhibition of -9%.
For O=C(O)CNCC(=O)O, the inhibition was 2%.
